Measured values from different studies.
Each line is one published result; not all experiments were run side by side. ± gives the spread as reported.

| SMILES | target or system | assay | system | setting | quantity | value |
| --- | --- | --- | --- | --- | --- | --- |
| O=C(NC1CC1)N1CCCN2CCC(c3ccc(C#Cc4ccccc4)cc3)C2C1 (centres unmarked) | Toxoplasma gondii | parasite growth | HFF, RH type I luciferase | – | EC90 | 4780 nM |
| Cc1cc(O)c(C=O)c2c1C(=O)Oc1c(CO)c(O)c3c(c1O2)C(O)OC3=O (centres unmarked) | – | – | streptozotocin-induced diabetic male rats, plasma | 5 mg/kg, 5 weeks | fasting plasma glucose | 243 ± 6.44 mg/dL |
| CC[C@H]1[C@@H](O)[C@@H]2[C@H](CC[C@]3(C)[C@@H]([C@H](C)CCOS(=O)(=O)[O-])CC[C@@H]23)[C@@]2(C)CC[C@@H](O)C[C@@H]12.[Na+] | – | – | ob/ob NASH mice, liver | oral, 3 mg/kg once daily, 8 wk | liver triglycerides | 229 ± 15.4 mg/g tissue |
| Cc1ccc(NC(=O)N2CCCN3CCC(c4ccc(C#CC5CCCC5O)cc4)C3C2)cc1 (centres unmarked) | Toxoplasma gondii | parasite growth | HFF, RH type I luciferase | – | EC90 | 520 ± 60 nM |
| Cc1ccc(C(C)C)cc1.[C-]#[O+].[C-]#[O+].[C-]#[O+].[Cl-].[Cl-].[Cl-].[Re+].[Ru+2].c1cnc(-c2ncccn2)nc1 | calf thymus DNA | – | – | concentration not given | number of binding sites | 0.91 |
| COC(=O)c1cnc(-c2cnccn2)cc1C(=O)OC.COC(=O)c1cnc(-c2cnccn2)cc1C(=O)OC.F[P-](F)(F)(F)(F)F.[Ag+] | calf thymus DNA | ethidium bromide displacement | – | – | fluorescence quenching | 17.9% |
| CCCCCCCCCCCCCCCC(=O)NCCCC[C@H](N)C(=O)N[C@@H](CC(=O)O)C(=O)N[C@H](C(=O)N[C@@H](Cc1c[nH]cn1)C(=O)N[C@@H](Cc1ccccc1)C(=O)N[C@@H](CCCNC(=N)N)C(=O)N[C@H](C(=O)N[C@@H](Cc1ccccc1)C(=O)N[C@@H](CCCNC(=N)N)C(=O)N[C@@H](CO)C(=O)N[C@@H](Cc1c[nH]cn1)C(=O)N[C@@H](CO)C(=O)N[C@@H](CC(=O)O)C(=O)N[C@@H](Cc1ccc(O)cc1)C(=O)N[C@@H](CCCNC(=N)N)C(=O)N[C@@H](CCCNC(=N)N)C(=O)N[C@H](C(=O)O)[C@@H](C)CC)[C@@H](C)O)[C@@H](C)O | – | – | C57BL/6J mouse, MCD diet | intraperitoneal, 1.2 nmol/g, 3 weeks, 3 times weekly | serum triglycerides | 63.9 ± 10.5 mg/dL |
| O=C(N[C@@H](CC1CCCCC1)C(=O)N[C@@H](C[C@H]1CCNC1=O)C(=O)C(=O)NC1CC1)OCc1cccc(Cl)c1 | human rhinovirus 51 | viral replication | WI-38 | 37 °C | EC50 | 70 ± 10 nM |

Repeated from above:
| SMILES | target or system | assay | system | setting | quantity | value |
| --- | --- | --- | --- | --- | --- | --- |
| O=C(N[C@@H](CC1CCCCC1)C(=O)N[C@@H](C[C@H]1CCNC1=O)C(=O)C(=O)NC1CC1)OCc1cccc(Cl)c1 | human rhinovirus 51 | viral replication | WI-38 | 37 °C | EC50 | 70 ± 10 nM |
